Results pooled from the literature.
Protocols differ between the studies behind these lines. ± gives the spread as reported.
GRPR: Gastrin-releasing peptide receptor (GRPR, Homo sapiens, UniProt P30550)
Proteasome component C5/PSMB5: Proteasome component C5/PSMB5 (Homo sapiens, UniProt P20618+P28074)
SLC6A2: Sodium-dependent noradrenaline transporter (SLC6A2, Homo sapiens, UniProt P23975)
Faah: Fatty-acid amide hydrolase 1 (Faah, Rattus norvegicus, UniProt P97612)

COc1ccc(C(=O)/C=C(\O)C(F)(F)C(F)(F)F)cn1
IC50 (Formate-nitrite transporter (FNT, Plasmodium malariae, UniProt A0A1C3KYI2)): 0.38 ± 0.02 µM

CCCC[C@H](NC(=O)[C@H](Cc1ccccc1)NC(=O)[C@H](Cc1c[nH]cn1)NC(=O)CCNC(=O)[C@@H](NC(=O)[C@H](C)NC(=O)[C@H](Cc1c[nH]c2ccccc12)NC(=O)[C@H](CC(N)=O)NC(=O)[C@@H](Cc1ccc(O)cc1)NC(=O)[C@@H](CO)NC(=O)[C@H](CO)NC(=O)[C@H](N)CO)C(C)C)C(N)=O
IC50 (GRPR; ligand displacement in cells, radioligand): 0.0068 µM

Cc1nc(Nc2ncc(C(=O)Nc3c(C)cccc3Cl)s2)cc(N2CCN(CCOC(=O)CCCCCCCCCCN)CC2)n1
IC50 (CSK (Homo sapiens, UniProt P41240); enzyme activity, inhibitor): 0.03 µM

N=C(N)NCCCC(N)C(=O)NCC(=O)NC(CCCNC(=N)NCCSCC1OC(n2cnc3c(N)ncnc32)C(O)C1O)C(N)=O (stereo not drawn)
IC50 (SETD7 (Homo sapiens, UniProt Q8WTS6); enzyme activity, inhibitor, fluorescence): > 100 µM

Cc1ccc(CNC(=O)[C@@H](NC(=O)[C@H](CCc2ccccc2)NC(=O)[C@H](CCc2ccccc2)N(C)Cc2cnccn2)C(C)C)cc1
IC50 (Proteasome component C5/PSMB5; β5 activity, inhibitor; with: Suc-LLVY-AMC, PA28α-activated): 1.97 µM

COc1ccc2c(c1)c1c(n2CO)CN2CCc3cc(OCc4cccc(F)c4)c(OC)cc3C2C1 (stereo not drawn)
IC50 (DRD1 (Homo sapiens, UniProt P21728); calcium signal, antagonist): > 100 µM

CN(C)S(=O)(=O)c1ccc(S(=O)(=O)N2CCC(n3c(=O)[nH]c4ccccc43)CC2)cc1
IC50 (mfd, C-terminal domain (Escherichia coli, UniProt P30958); ATPase activity; with: ATP 0 to 0.3 mM): 29 ± 0.1 µM

C#CCOc1cccc(Oc2nc3c(c(=O)n(CCCO)c(=O)n3C)n2Cc2ccc(C3(C(F)(F)F)N=N3)cc2)c1
IC50 (TRPC5 (Homo sapiens, UniProt Q9UL62); calcium signal, inhibitor, fluorescence): 0.026 µM

CN(CC(=O)c1ccc2[nH]c(=O)[nH]c2c1)Cc1ccco1
IC50 (Activation-induced cytidine deaminase (Danio rerio, UniProt Q5YF88); enzyme activity, inhibitor; 25 °C): > 1000 µM

CNC(=O)C(CS)N1C(=O)c2ccc(N(C)C)cc2C1=O (stereo not drawn)
IC50 (VIM-2 (Escherichia coli, UniProt Q5U7L7); enzyme activity, inhibitor; pH 7): 2.3 µM

C[C@H](OP(=O)(O)O)[C@H]1NC(=O)[C@@H](CCCNC(=N)N)NC(=O)[C@@H](CCCNC(=N)N)NC(=O)[C@H](CCCNC(=N)N)NC(=O)[C@H](Cc2ccc3ccccc3c2)NC(=O)[C@H](Cc2ccc3ccccc3c2)NC(=O)[C@@H]2CCCCN2C1=O
IC50 (PIN1 (Homo sapiens, UniProt Q13526); fluorescence anisotropy competition; with: FITC-labelled probe): 3.4 ± 0.81 µM

O=C(/C=C/c1ccc(O)c2oc(-c3ccc(O)c(O)c3)cc12)O[C@H](Cc1ccc(O)c(O)c1)C(=O)O
IC50 (GPR35 (Homo sapiens, UniProt Q9HC97); DMR desensitization; HT-29; with Tween-80 0.025%, with: zaprinast): 8.65 µM

C=CC(=O)N1[C@@H](c2ccc3c(c2)OCO3)c2[nH]c3ccccc3c2C[C@@H]1C(=O)N1CCOCC1
IC50 (Splicing factor 3B subunit 1 (Homo sapiens, UniProt O75533); inhibitor): 5.2 µM

O=C(CSc1nnc(N2CCOCC2)n1-c1ccccc1)NCc1cccc(NC(=O)C2CC2)c1
IC50 (KCNA2/KCNA1 (Homo sapiens, UniProt P16389+Q09470); potassium current, inhibitor, automated patch clamp; CHO-K1, concatemer expressing): 0.71 µM

O=C(NCCCN1CCC(Cc2ccccc2)CC1)c1cccc2ccccc12
IC50 (SLC6A2; transporter uptake, inhibitor, radiometric): 0.87 to 7.43 µM

O=C(OC(C(F)(F)F)C(F)(F)F)N1CCC(CCn2ccc3ncccc32)CC1
IC50 (Faah; enzyme activity, inhibitor): 6.1 µM

CN1CCc2cc(Nc3ncc(C(F)(F)F)c(NCc4cc[nH]n4)n3)ccc2C1
IC50 (MARK3 (Homo sapiens, UniProt P27448); enzyme activity, inhibitor, FRET): 0.0018 µM

CC[C@H](C)[C@H](NC(=O)CNC(=O)C1CCN(C(=O)[C@H](CO)NC(=O)[C@@H](N)Cc2c[nH]cn2)CC1)C(=O)N[C@@H](Cc1ccccc1)C(=O)N[C@H](C(=O)N[C@@H](CC(=O)O)C(=O)N[C@@H](CO)C(=O)N[C@@H](Cc1ccc(O)cc1)C(=O)N[C@@H](CO)C(=O)N[C@@H](CCCNC(=N)N)C(=O)N[C@@H](Cc1ccc(O)cc1)C(=O)N[C@@H](CCCNC(=N)N)C(=O)N[C@@H](CCCCN)C(=O)NC(C)(C)C(=O)N[C@@H](C)C(=O)N[C@@H](C)C(=O)N[C@H](C(=O)N[C@@H](CCCCN)C(=O)N[C@@H](CCCCN)C(=O)N[C@@H](Cc1ccc(O)cc1)C(=O)N[C@@H](CC(C)C)C(=O)N[C@@H](C)C(=O)N[C@@H](C)C(=O)N[C@H](C(=O)N[C@@H](CC(C)C)C(=O)NC(C)(C)C(=O)N[C@@H](CCCCN)C(=O)N[C@@H](CCCNC(=N)N)C(=O)N[C@@H](Cc1ccc(O)cc1)C(=O)N[C@@H](CCCCN)C(=O)N[C@@H](CCC(N)=O)C(=O)N[C@@H](CCCCN)C(=O)N[C@H](C(=O)N[C@@H](CCCCN)C(=O)N[C@@H](CC(N)=O)C(=O)N[C@H](CCCCN)C(N)=O)C(C)C)C(C)C)C(C)C)[C@@H](C)O
IC50 (VIPR1 (Homo sapiens, UniProt P32241); ligand displacement, radioligand): > 1 µM

O=C(CNc1nc(NNC(=O)c2ccc(Nc3nc(Nc4ccc(C(=O)NNc5nc(NCC(=O)NO)nc(N6CCCCC6)n5)cc4)nc(Nc4ccc(C(=O)NNc5nc(NCC(=O)NO)nc(N6CCCCC6)n5)cc4)n3)cc2)nc(N2CCCCC2)n1)NO
IC50 (MMP9 (Homo sapiens, UniProt P14780); enzyme activity, inhibitor, absorbance): 0.207 µM

C[C@H]1CN(C(=O)c2cn(-c3ccnc(N)n3)c3cc(C#CC4(O)CCCCC4)ccc23)CCN1
IC50 (PAK4 (Homo sapiens, UniProt O96013); enzyme activity, inhibitor, TR-FRET): 0.0183 µM

O=C(NCCc1ccccn1)[C@@H]1Cc2ccccc2CN1S(=O)(=O)c1ccc2ccccc2c1
IC50 (CACNA1C (Homo sapiens, UniProt Q13936); calcium signal, fluorescence): 11.4 µM

CCCCCCCCCCCCCC(=S)NCCCC[C@H](NC(=O)[C@@H]1CCCN1)C(=O)N[C@@H](CCCCN)C(=O)N[C@H](C(=O)NCC(=O)O)[C@@H](C)O
IC50 (SIRT1 (Homo sapiens, UniProt Q96EB6)): 10.7 µM

CC(C)C[C@H](NC(=O)OCc1cccc(Cl)c1)C(=O)N[C@@H](C[C@H]1CCNC1=O)C(=O)C(=O)NC1CC1
IC50 (Genome polyprotein, 3C protease (rhinovirus B14, UniProt P03303); 3C protease activity, inhibitor, FRET): 0.16 ± 0.01 µM

CNCc1c(OCc2ccc(F)cc2)ccc2ccccc12
IC50 (SLC6A2; transporter uptake, inhibitor, radiometric): 2.09 µM

O=C(Nc1ccc(OC(F)(F)F)cc1)N1CCC(Cc2cccc(Oc3ccc(C(F)(F)F)cn3)c2)CC1
IC50 (Faah; enzyme activity, inhibitor, fluorescence; rat brain microsomes; 5 min preincubation): > 10 µM

COc1ccc(C[C@H](NC(=O)Cc2cccc(Oc3ccccc3)c2)C(=O)N[C@@H](Cc2c[nH]c3ccccc23)C(=O)NCc2ccc(C)cc2)cc1OC
IC50 (Proteasome component C5/PSMB5; inhibitor): 0.13 µM

O=C(OC(C(F)(F)F)C(F)(F)F)N1CCC(CCn2nc3ccccc3n2)CC1
IC50 (MGLL (Homo sapiens, UniProt Q99685); enzyme activity, inhibitor): 0.18 µM

COCCn1cc(COc2cccc(Cc3cnc(NC(=O)C(C)c4ccc(CC(C)C)cc4)s3)c2)nn1 (stereo not drawn)
IC50 (SIRT3 (Homo sapiens, UniProt Q9NTG7); enzyme activity, inhibitor, fluorescence): > 100 µM

CC(C)[C@H](NC(=O)[C@H](C)NC(=O)[C@H](Cc1c[nH]c2ccccc12)NC(=O)[C@H](Cc1c[nH]cn1)NC(=O)[C@H](N)Cc1ccc(O)cc1)C(=O)N[C@H](C)C(=O)N[C@@H](Cc1c[nH]cn1)C(=O)N1CCC[C@@H]1CN[C@@H](Cc1ccccc1)C(N)=O
IC50 (GRPR; inositol phosphate generation, antagonist; Balb 3T3 expressing GRPR; with: GRP 1 nM): 0.168 ± 0.02 µM

Cc1cc2c(NC(=O)N[C@@H]3CC(C)(C)Oc4cc(C(F)(F)F)ccc43)cccc2cn1
IC50 (TRPV1 (Homo sapiens, UniProt Q8NER1); acid-evoked calcium influx, antagonist; HEK293, human; pH 5): 0.0201 ± 0.0073 µM

Cn1cnnc1Sc1c2c(c(C#N)c3nc4ccccc4n13)CCCC2
IC50 (ERO1-like protein alpha (Homo sapiens, UniProt Q96HE7); enzyme activity, inhibitor, fluorescence): 1.4 µM

COc1cc(O)cc(-c2cc3cc(O)c(OC)cc3o2)c1
IC50 (PPO3 (Agaricus bisporus, UniProt C7FF04); enzyme activity, inhibitor, absorbance; pH 6.8): 45.8 µM

CNC(=O)C1CCN(c2cc(C)ccc2NC(=O)c2ccc(-c3cc(O)ccc3C)c(C)c2)CC1
IC50 (EPHA5 (Homo sapiens, UniProt P54756); target engagement in cells, BRET): 0.015 µM

CC[C@H](C)[C@H](NC(=O)[C@H](CC(C)C)NC(=O)[C@@H]1CCCN1C(=O)[C@H](CC(C)C)NC(=O)[C@@H]1CCCN1C(C)=O)C(=O)N[C@@H](Cc1ccccc1)C(=O)N[C@@H](CCC(N)=O)C(=O)N[C@H](C(=O)N[C@H](C(=O)N1CCC[C@H]1C(=O)N[C@@H](CC(C)C)C(=O)N[C@@H](CC(N)=O)C(=O)N[C@@H](CC(C)C)C(=O)N[C@H](C(=O)N[C@@H](CCC(N)=O)C(=O)N[C@@H](Cc1c[nH]c2ccccc12)C(=O)N[C@@H](CC(C)C)C(=O)N[C@@H](CCSC)C(=O)N[C@H](C(=O)N[C@@H](CC(C)C)C(=O)O)C(C)C)[C@@H](C)O)[C@@H](C)O)[C@@H](C)CC
IC50 (H2-Aa/H2-Ab1 (Mus musculus, UniProt P01910+P06343); binding, DELFIA competition; pH 7.0, with: biotinylated HEL peptide): 8.09 ± 1.94 µM

Cc1ccc2c(c1Br)C(O)(CC(=O)c1ccc3c(c1)OCO3)C(=O)N2 (stereo not drawn)
IC50 (UAP1 (Homo sapiens, UniProt Q16222); enzyme activity, inhibitor, absorbance): > 1000 µM

O=C(O)c1ccc2nc(-c3ccc(OCCCCOc4ccc(-c5nc6ccc(C(=O)O)cc6[nH]5)cc4)cc3)[nH]c2c1
IC50 (Dihydrofolate reductase type 2 (Escherichia coli, UniProt P00383); enzyme activity, inhibitor; pH 7): 60 ± 10 µM

CC1OC(Oc2c(-c3ccc(O)cc3)oc3cc(O)cc(O)c3c2=O)C(OC(=O)C=Cc2ccc(O)cc2)C(O)C1OC(=O)C=Cc1ccc(O)cc1 (stereo not drawn)
IC50 (Ccr2 (Mus musculus, UniProt P51683); ligand displacement in cells, radioligand): 0.414 µM

CC(C)CCC[C@@H](C)[C@H]1CC[C@H]2[C@@H]3CC=C4C[C@@H](OS(=O)(=O)O)CC[C@]4(C)[C@H]3CC[C@]12C
IC50 (Prothrombin (F2, Homo sapiens, UniProt P00734); enzyme activity, inhibitor; pH 7.4, 25 °C, 0.02% Tween 80, with: Spectrozyme TH): 280 ± 7.1 µM

CN1CCCC2(CCN(c3cc(-c4ccccc4)nc4ccnn34)C2)C1=O (stereo not drawn)
IC50 (Transcriptional enhancer factor TEF-3, YAP-binding domain (TEAD4, Homo sapiens, UniProt Q15561)): 0.243 µM

CCC1(CC)C(=O)N(c2cccc(CN3CCN(c4cc(C)nc5ccc(Br)cc45)CC3)c2)C1=O
IC50 (Dipeptidyl peptidase 2 (Homo sapiens, UniProt Q9UHL4); cell-free assay, inhibitor): > 10 µM

c1ccc(CCNc2ncnc3[nH]cnc23)cc1
IC50 (Chemotaxis protein CheA (Escherichia coli, UniProt P07363); enzyme activity, inhibitor, radiometric): 478 µM

CC[C@H](C)[C@H](NC(=O)[C@H](Cc1ccccc1)NC(=O)[C@H](CC(=O)O)NC(=O)[C@H](CCCNC(=N)N)NC(=O)[C@H](C)NC(=O)[C@H](C)NC(=O)[C@H](CC(C)C)NC(=O)[C@H](CC(N)=O)NC(=O)[C@H](CC(=O)O)NC(=O)[C@H](CC(C)C)NC(=O)[C@@H](NC(=O)[C@@H](NC(=O)[C@H](CC(N)=O)NC(=O)[C@H](CCSC)NC(=O)[C@H](CCC(=O)O)NC(=O)[C@H](CC(=O)O)NC(=O)[C@H](CO)NC(=O)[C@H](Cc1ccccc1)NC(=O)[C@H](CO)NC(=O)[C@@H](C)NC(=O)[C@H](CC(=O)O)NC(=O)[C@H](C)NC(=O)[C@@H](N)Cc1c[nH]cn1)[C@@H](C)O)[C@@H](C)CC)C(=O)N[C@@H](CC(N)=O)C(=O)N[C@@H](Cc1c[nH]c2ccccc12)C(=O)N[C@@H](CC(C)C)C(=O)N[C@H](C(=O)N[C@@H](CCC(N)=O)C(=O)N[C@H](C(=O)N[C@@H](CCCCN)C(=O)N[C@H](C(=O)N[C@H](C(=O)N[C@@H](CC(=O)O)C(N)=O)[C@@H](C)O)[C@@H](C)CC)[C@@H](C)O)[C@@H](C)CC
IC50 (GLP2R (Homo sapiens, UniProt O95838)): 0.098 µM

A few entries again:
O=C(Nc1ccc(OC(F)(F)F)cc1)N1CCC(Cc2cccc(Oc3ccc(C(F)(F)F)cn3)c2)CC1
IC50 (Faah; enzyme activity, inhibitor, fluorescence; rat brain microsomes; 5 min preincubation): > 10 µM

COc1ccc(C[C@H](NC(=O)Cc2cccc(Oc3ccccc3)c2)C(=O)N[C@@H](Cc2c[nH]c3ccccc23)C(=O)NCc2ccc(C)cc2)cc1OC
IC50 (Proteasome component C5/PSMB5; inhibitor): 0.13 µM
